Experimental data of several laboratories.
Each numbered part is a random draw from the data of one study; scales do not carry over between parts. ± marks the error that the study gave.
Sequence of UniProt P11388 (whole entry, looked up): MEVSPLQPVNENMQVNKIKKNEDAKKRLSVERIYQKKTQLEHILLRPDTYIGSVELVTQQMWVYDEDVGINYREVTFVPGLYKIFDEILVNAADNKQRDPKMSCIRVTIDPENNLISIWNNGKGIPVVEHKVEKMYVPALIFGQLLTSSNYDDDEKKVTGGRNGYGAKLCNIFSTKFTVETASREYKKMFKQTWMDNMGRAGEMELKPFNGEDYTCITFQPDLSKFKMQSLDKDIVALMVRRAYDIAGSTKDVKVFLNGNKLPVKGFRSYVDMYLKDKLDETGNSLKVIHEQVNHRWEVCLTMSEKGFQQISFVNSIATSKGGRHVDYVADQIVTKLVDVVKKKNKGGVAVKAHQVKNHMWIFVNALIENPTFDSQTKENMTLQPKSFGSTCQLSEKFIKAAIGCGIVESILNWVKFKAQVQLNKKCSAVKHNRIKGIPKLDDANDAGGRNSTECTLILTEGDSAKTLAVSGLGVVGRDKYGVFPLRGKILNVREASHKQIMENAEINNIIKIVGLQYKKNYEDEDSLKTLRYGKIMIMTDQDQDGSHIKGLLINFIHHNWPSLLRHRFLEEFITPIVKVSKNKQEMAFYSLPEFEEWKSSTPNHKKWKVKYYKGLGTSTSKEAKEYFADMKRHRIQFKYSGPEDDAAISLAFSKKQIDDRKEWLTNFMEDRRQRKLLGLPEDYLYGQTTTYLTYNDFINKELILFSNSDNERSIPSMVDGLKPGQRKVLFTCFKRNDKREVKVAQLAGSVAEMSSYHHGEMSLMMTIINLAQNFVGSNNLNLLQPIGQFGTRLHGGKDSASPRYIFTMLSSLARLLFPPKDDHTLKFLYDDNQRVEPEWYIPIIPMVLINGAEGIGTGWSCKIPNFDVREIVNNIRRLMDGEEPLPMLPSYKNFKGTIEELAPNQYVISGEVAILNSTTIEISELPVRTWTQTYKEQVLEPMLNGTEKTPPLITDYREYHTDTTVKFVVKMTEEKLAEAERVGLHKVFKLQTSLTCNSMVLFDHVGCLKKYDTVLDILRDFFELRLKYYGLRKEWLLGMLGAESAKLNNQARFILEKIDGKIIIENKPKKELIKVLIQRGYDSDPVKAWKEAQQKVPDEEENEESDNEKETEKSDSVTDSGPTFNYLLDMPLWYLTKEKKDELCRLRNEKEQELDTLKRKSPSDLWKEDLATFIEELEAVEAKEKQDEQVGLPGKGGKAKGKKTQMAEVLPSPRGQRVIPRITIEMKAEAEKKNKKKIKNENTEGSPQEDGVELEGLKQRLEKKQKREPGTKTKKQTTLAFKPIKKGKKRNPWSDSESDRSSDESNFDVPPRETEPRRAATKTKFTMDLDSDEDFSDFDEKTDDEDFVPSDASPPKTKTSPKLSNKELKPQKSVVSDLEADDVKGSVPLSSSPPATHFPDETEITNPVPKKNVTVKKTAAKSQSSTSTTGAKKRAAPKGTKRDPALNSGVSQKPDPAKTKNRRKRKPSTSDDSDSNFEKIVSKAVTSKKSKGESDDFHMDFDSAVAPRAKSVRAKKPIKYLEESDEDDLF

Series 1 — action: inhibitor; endpoint: IC50
Target: Replicase polyprotein 1ab, nsp14 (rep, Severe acute respiratory syndrome coronavirus 2, UniProt P0DTD1)
Cc1c(S(=O)(=O)N2CCn3nccc3C2)cc(C(=O)NCc2cccc3cnn(C)c23)n1C: 2.5 nM
CCc1c(S(=O)(=O)N2CCC(C)CC2)cc(C(=O)NCc2ccccc2OC)n1C: 1650 nM
Cc1c(S(=O)(=O)N2CCC(C)CC2)cc(C(=O)NCc2cccnc2N2CCCC2)n1C: 17 nM
Cc1c(S(=O)(=O)N2CCc3c(cnn3C)C2)cc(C(=O)NCc2cccnc2N2CCCC2)n1C: 17 nM
COc1ccccc1CNC(=O)c1cc(S(=O)(=O)N2CCCC(C)C2)c(C)n1C (stereo not shown): 1000 nM

Mixed results
COc1cc([C@@H]2c3cc4c(cc3[C@@H](O[C@@H]3O[C@@H]5CO[C@@H](C)O[C@H]5[C@H](O)[C@H]3O)[C@H]3COC(=O)[C@H]23)OCO4)cc(OC)c1O
inhibition (DNA topoisomerase 2-alpha (TOP2A, Homo sapiens, UniProt P11388); enzyme activity, inhibitor; 15.6 µM): 86.7%

CC1COc2ccccc2N1C(=O)C(Cl)Cl (stereo not shown)
remaining compound (carboxylesterase; female rhesus monkey liver cytosol; 5 µM, 30 min, pH 7.4, without GSH): 78 ± 1%

COC(=O)Nc1c(N)nc(-c2nn(Cc3ccccc3F)c3ncc(F)cc23)nc1N
AUC (healthy male humans, plasma; oral, 1.25 mg, phase I DDI study, together with: ketoconazole): 868 ng·h/mL

N#CCC1CCN(c2nc(Nc3ccc(N4CCC(O)CC4)cc3)c3c(=O)[nH]ncc3n2)CC1
GIF level difference (vs placebo, Olink multiplex; human, serum; 80 mg, day 15, unit not given; reference: placebo): 1.42

Fc1ccccc1Cc1nc(-c2nc(C(F)(F)F)n[nH]2)cn2ccnc12
subjects with adverse events (measured: Investigations; healthy humans; oral, 10 mg, fed, single dose): 0%

For quick reference, copied from above (mixed results):
N#CCC1CCN(c2nc(Nc3ccc(N4CCC(O)CC4)cc3)c3c(=O)[nH]ncc3n2)CC1
GIF level difference (vs placebo, Olink multiplex; human, serum; 80 mg, day 15, unit not given; reference: placebo): 1.42
